# Measured values of several laboratories.
# Every numbered part comes from another study and shows a few of its results, in no order. Positions count from the first letter of the parent shown.
# UniProt O75417, sequence (whole entry, unmodified, looked up): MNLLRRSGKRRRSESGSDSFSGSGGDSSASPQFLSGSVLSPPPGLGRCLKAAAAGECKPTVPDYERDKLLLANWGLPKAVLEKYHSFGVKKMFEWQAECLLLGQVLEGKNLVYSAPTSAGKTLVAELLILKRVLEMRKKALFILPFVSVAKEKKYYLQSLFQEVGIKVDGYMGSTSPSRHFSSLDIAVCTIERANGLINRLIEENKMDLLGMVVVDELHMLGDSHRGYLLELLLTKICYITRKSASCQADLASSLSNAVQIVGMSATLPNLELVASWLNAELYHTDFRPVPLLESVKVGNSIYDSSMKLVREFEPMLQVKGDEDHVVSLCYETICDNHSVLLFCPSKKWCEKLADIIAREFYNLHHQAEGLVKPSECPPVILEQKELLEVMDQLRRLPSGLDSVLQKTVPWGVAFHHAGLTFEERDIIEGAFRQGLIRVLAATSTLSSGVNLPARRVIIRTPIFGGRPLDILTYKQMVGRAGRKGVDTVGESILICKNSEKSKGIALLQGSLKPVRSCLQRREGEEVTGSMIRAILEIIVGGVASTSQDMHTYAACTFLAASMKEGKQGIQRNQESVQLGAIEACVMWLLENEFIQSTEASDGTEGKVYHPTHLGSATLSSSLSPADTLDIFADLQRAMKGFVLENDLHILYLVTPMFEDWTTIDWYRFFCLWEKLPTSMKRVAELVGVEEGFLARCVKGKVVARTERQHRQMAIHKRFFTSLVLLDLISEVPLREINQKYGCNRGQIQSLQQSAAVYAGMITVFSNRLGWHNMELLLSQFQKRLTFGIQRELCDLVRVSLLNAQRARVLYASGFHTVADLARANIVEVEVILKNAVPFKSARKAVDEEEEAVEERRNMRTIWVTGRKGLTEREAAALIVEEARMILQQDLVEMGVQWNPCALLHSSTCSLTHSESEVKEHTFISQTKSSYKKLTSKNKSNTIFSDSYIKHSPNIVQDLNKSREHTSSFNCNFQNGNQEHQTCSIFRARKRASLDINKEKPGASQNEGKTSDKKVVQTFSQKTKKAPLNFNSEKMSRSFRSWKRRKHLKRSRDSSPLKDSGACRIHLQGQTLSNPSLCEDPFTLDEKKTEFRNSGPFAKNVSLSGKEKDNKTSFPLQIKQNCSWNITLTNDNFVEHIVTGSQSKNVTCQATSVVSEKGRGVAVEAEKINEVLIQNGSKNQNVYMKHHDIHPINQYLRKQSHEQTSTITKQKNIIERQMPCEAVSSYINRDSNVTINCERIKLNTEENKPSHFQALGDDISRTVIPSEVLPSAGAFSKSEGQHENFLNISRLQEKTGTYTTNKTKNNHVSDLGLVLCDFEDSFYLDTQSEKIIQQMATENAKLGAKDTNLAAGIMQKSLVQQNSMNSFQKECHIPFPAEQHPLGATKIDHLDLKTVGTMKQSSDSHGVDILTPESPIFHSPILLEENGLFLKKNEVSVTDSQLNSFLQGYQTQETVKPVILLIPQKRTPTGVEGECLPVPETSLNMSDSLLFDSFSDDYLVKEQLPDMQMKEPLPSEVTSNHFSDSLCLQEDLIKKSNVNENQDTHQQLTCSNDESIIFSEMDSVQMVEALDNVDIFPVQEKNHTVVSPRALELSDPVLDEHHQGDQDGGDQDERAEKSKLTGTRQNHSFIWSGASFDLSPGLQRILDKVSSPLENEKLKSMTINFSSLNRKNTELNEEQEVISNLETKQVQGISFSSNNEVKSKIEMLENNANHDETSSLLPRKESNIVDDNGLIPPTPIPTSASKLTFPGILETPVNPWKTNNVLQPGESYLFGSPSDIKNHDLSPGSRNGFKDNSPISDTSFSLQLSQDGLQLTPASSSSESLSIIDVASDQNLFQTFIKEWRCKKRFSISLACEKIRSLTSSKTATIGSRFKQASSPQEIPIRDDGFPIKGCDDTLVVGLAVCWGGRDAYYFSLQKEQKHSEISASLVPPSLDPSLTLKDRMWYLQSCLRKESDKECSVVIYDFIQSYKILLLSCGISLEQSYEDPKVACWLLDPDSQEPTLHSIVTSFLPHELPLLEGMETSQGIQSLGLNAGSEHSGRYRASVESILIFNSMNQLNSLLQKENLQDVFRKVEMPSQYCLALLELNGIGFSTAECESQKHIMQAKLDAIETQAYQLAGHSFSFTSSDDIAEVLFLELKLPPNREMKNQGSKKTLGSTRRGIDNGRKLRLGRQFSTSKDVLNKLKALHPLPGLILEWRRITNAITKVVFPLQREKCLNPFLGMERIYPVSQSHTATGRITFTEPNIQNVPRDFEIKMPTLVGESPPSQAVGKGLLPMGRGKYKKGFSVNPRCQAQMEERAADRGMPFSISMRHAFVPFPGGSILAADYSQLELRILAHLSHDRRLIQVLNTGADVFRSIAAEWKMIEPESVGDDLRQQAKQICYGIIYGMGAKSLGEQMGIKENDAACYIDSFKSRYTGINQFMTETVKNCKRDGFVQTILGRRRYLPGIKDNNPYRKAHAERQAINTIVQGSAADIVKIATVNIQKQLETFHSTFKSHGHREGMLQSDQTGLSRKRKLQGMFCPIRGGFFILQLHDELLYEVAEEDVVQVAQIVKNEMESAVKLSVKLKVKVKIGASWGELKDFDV
# UniProt Q9UKS7, sequence (whole entry, looked up): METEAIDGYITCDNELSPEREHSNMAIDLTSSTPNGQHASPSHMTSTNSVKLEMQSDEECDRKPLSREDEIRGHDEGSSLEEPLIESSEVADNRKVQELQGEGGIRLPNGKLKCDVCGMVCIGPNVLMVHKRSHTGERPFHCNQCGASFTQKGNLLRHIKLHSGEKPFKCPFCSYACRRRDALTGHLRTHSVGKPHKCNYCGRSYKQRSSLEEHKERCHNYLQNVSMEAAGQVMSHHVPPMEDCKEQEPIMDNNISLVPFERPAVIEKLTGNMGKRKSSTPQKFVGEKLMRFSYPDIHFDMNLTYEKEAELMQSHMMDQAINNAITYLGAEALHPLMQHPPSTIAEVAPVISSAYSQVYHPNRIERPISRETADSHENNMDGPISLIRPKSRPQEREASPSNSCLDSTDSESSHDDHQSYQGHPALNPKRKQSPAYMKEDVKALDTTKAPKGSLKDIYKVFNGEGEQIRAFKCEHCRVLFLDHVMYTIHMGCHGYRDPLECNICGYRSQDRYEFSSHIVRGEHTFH
# UniProt Q96SW2, sequence (whole entry, looked up): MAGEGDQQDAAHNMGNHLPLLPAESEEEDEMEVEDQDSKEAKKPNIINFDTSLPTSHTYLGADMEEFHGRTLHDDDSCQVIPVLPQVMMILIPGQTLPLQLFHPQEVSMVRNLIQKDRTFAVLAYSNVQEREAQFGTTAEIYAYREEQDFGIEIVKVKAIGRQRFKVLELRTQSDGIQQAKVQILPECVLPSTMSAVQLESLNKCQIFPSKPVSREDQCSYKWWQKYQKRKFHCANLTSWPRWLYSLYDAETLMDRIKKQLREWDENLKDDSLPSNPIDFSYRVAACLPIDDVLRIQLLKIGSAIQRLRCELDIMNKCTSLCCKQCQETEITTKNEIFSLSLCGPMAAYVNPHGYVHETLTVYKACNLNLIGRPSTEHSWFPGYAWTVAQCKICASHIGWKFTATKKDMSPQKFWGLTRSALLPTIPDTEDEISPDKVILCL

# Set 1 — effect on: ligand displacement; concentration: 10 µM
# Target: Muscarinic acetylcholine receptor M3 (CHRM3, Homo sapiens, UniProt P20309)
# UniProt P20309, sequence (whole entry, looked up): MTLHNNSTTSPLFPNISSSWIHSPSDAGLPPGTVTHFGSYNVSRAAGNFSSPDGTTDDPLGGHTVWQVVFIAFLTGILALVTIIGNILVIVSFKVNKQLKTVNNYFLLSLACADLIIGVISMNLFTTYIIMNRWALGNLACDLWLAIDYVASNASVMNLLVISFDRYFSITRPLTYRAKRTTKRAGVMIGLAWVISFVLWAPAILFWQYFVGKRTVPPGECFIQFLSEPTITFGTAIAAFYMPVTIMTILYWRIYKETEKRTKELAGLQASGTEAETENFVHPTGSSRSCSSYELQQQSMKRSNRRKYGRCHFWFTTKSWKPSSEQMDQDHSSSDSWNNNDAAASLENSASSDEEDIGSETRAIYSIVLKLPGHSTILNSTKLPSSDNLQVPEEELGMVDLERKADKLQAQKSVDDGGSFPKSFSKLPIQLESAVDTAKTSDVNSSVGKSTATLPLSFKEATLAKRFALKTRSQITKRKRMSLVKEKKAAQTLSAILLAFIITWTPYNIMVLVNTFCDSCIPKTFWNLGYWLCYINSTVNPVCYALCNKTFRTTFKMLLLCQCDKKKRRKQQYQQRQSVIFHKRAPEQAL
SMILES,inhibition
COc1cc(C(=O)O)ncc1C#Cc1ccccc1NS(=O)(=O)c1cccc2c(N(C)C)ccnc12,-24.4%
CC[C@H](CC(=O)O)n1c(=O)c2ncccc2n(Cc2cn(C)c3cc(C)cc(C)c23)c1=O,23.8%
COc1cc(N[C@@H]2CCCC[C@]2(O)C(F)(F)F)ccc1F,25.6%
Cc1ncc(-c2cc(Cl)ccc2F)cc1-n1c(=O)n(CC(N)=O)c2ccccc21,-5.28%
Cc1ccc(-c2cnc([C@@]3(O)CC[C@H](C(=O)O)C(C)(C)C3)s2)cc1Nc1cccc(C(F)(F)F)n1,6.69%
CCC(F)(F)c1cc(N2CCC(S(C)(=O)=O)CC2)nc2sc(C(N)=O)c(N)c12,21.1%
Cc1c(N2CCNCC2)nc2ccc(Br)cc2c1C(=O)NC[C@H](CCC(=O)O)c1ccccc1Cl,13.7%
CC1CCN(c2ccnc(NCc3cn(C)cn3)n2)CC1,7.48%
c1ccc(N2CCN(Cc3nc4ccccc4[nH]3)CC2)nc1,-1.54%
CN1CCN(C(=O)C(C)(C)c2ccc(C(=O)Nc3cn4cc(-c5cc(C(C)(C)C)cc(C(C)(C)C)c5)ccc4n3)cc2)CC1,40.4%
Nc1nc(NCc2ccccc2)nc(-c2ccccc2CO)n1,36%
C[C@@H](c1cccc(C#N)c1)n1cc(Cl)cc(C(N)=O)c1=N,-6.17%
COc1cc(-c2cn(C3CCc4c(F)cccc4N(CC(F)(F)F)C3=O)nn2)ccc1-n1cnc(C)c1 (stereo not shown),-4.42%
NS(=O)(=O)c1cc(NC(=O)Cc2ccccc2)ccc1Oc1cccc(Cl)c1,-0.53%

# Set 2 — target: inorganic phosphate, free oxyanion; technique: microfluidic competitive inhibition; matrix: in vitro, cell-free expressed; concentration: not given; reading: lower = stronger binding
# Notes: derived from inhibition constants, unchanged parent 615000 nM
# Starting sequence: PafA, mature enzyme, eGFP fusion (Elizabethkingia meningoseptica, UniProt Q9KJX5); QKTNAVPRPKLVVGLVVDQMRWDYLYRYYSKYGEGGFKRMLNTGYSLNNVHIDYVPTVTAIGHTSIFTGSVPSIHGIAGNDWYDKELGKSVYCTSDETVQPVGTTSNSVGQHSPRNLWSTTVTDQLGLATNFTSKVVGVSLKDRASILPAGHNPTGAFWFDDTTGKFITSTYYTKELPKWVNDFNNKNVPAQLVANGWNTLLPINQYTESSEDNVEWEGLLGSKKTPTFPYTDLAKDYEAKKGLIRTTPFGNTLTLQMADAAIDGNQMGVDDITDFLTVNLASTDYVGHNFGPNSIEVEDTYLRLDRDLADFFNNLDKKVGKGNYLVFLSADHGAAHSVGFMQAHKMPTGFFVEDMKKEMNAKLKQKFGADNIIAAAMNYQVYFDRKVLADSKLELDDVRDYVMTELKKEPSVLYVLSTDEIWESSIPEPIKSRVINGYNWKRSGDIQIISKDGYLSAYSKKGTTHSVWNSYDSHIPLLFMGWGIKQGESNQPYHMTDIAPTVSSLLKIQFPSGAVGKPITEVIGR
Variant,phosphate dissociation constant
D498G,379 µM
T247G,449 µM
E86V,537 µM
A259G,472 µM
V416G,474 µM
M378V,620 µM
K365V,738 µM
K318G,566 µM

# Set 3 — cell line: A-375; concentration: 100 µM; time: 36 h
Structure (SMILES),viability
CCOC(=O)c1cncn1[C@H](C)c1ccccc1,83%
CC[C@@H](C(N)=O)N1CCCC1=O,103%
N#Cc1ccccc1-c1cc(-c2ccccn2)cn(-c2ccccc2)c1=O,80.9%

# Other studies, line by line
Structure (SMILES),tested on,test,system,setting,scale,endpoint,value
O=C1CCC(N2Cc3c(ccc4c3OCC43CCN(CC4CCCCC4)CC3)C2=O)C(=O)N1 (stereo not shown),"CRBN/Zinc finger protein Helios (Homo sapiens, UniProt Q96SW2+Q9UKS7)","degrader, HiBiT",HEK293,13.72 nM,,protein remaining,64.2%
NCC(O)c1ccc(O)cc1 (racemic),"DNA polymerase theta, ATPase domain (POLQ, Homo sapiens, UniProt O75417)","enzyme activity, inhibitor",,77 µM,relative to: untreated,remaining activity,101%
CCN(CC)CCCOC(=O)C(OC(C)C)(c1ccccc1)c1ccccc1,,,"mouse, microsomes or S9","2 µM, 0.5 h",,remaining compound,5.9%

# A few entries again (set 1):
SMILES,inhibition
COc1cc(-c2cn(C3CCc4c(F)cccc4N(CC(F)(F)F)C3=O)nn2)ccc1-n1cnc(C)c1 (stereo not shown),-4.42%
CN1CCN(C(=O)C(C)(C)c2ccc(C(=O)Nc3cn4cc(-c5cc(C(C)(C)C)cc(C(C)(C)C)c5)ccc4n3)cc2)CC1,40.4%
CC[C@H](CC(=O)O)n1c(=O)c2ncccc2n(Cc2cn(C)c3cc(C)cc(C)c23)c1=O,23.8%
C[C@@H](c1cccc(C#N)c1)n1cc(Cl)cc(C(N)=O)c1=N,-6.17%
Nc1nc(NCc2ccccc2)nc(-c2ccccc2CO)n1,36%
